Results gathered from unrelated publications.
Compare with care: the assays were run in different laboratories. Several values in a cell are separate wells, animals, samples, runs or records. ± marks the error that the study gave.
BCL6: B-cell lymphoma 6 protein (BCL6, Homo sapiens, UniProt P41182)
CDPK1: Calmodulin-domain protein kinase 1 (CDPK1, Toxoplasma gondii, UniProt Q9BJF5)
NR1H3: Oxysterols receptor LXR-alpha (NR1H3, Homo sapiens, UniProt Q13133)
UniProt Q13133, sequence (whole entry, looked up): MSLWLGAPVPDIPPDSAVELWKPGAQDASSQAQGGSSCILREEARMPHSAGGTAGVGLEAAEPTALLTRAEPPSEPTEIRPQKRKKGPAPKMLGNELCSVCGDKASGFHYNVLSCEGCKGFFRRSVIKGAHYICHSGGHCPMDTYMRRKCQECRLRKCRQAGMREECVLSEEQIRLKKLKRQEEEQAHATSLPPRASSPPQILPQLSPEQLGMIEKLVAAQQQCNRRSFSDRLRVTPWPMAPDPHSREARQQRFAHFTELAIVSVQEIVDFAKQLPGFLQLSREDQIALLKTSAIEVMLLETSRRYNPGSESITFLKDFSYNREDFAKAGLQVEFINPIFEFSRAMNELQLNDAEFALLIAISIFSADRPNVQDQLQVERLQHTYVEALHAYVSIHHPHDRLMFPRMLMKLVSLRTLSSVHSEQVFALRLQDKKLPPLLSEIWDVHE
GP1 NS5 methyltransferase domain: Genome polyprotein, NS5 methyltransferase domain (GP1, West Nile virus, UniProt Q9Q6P4)
UniProt Q9Q6P4, sequence (whole entry, looked up): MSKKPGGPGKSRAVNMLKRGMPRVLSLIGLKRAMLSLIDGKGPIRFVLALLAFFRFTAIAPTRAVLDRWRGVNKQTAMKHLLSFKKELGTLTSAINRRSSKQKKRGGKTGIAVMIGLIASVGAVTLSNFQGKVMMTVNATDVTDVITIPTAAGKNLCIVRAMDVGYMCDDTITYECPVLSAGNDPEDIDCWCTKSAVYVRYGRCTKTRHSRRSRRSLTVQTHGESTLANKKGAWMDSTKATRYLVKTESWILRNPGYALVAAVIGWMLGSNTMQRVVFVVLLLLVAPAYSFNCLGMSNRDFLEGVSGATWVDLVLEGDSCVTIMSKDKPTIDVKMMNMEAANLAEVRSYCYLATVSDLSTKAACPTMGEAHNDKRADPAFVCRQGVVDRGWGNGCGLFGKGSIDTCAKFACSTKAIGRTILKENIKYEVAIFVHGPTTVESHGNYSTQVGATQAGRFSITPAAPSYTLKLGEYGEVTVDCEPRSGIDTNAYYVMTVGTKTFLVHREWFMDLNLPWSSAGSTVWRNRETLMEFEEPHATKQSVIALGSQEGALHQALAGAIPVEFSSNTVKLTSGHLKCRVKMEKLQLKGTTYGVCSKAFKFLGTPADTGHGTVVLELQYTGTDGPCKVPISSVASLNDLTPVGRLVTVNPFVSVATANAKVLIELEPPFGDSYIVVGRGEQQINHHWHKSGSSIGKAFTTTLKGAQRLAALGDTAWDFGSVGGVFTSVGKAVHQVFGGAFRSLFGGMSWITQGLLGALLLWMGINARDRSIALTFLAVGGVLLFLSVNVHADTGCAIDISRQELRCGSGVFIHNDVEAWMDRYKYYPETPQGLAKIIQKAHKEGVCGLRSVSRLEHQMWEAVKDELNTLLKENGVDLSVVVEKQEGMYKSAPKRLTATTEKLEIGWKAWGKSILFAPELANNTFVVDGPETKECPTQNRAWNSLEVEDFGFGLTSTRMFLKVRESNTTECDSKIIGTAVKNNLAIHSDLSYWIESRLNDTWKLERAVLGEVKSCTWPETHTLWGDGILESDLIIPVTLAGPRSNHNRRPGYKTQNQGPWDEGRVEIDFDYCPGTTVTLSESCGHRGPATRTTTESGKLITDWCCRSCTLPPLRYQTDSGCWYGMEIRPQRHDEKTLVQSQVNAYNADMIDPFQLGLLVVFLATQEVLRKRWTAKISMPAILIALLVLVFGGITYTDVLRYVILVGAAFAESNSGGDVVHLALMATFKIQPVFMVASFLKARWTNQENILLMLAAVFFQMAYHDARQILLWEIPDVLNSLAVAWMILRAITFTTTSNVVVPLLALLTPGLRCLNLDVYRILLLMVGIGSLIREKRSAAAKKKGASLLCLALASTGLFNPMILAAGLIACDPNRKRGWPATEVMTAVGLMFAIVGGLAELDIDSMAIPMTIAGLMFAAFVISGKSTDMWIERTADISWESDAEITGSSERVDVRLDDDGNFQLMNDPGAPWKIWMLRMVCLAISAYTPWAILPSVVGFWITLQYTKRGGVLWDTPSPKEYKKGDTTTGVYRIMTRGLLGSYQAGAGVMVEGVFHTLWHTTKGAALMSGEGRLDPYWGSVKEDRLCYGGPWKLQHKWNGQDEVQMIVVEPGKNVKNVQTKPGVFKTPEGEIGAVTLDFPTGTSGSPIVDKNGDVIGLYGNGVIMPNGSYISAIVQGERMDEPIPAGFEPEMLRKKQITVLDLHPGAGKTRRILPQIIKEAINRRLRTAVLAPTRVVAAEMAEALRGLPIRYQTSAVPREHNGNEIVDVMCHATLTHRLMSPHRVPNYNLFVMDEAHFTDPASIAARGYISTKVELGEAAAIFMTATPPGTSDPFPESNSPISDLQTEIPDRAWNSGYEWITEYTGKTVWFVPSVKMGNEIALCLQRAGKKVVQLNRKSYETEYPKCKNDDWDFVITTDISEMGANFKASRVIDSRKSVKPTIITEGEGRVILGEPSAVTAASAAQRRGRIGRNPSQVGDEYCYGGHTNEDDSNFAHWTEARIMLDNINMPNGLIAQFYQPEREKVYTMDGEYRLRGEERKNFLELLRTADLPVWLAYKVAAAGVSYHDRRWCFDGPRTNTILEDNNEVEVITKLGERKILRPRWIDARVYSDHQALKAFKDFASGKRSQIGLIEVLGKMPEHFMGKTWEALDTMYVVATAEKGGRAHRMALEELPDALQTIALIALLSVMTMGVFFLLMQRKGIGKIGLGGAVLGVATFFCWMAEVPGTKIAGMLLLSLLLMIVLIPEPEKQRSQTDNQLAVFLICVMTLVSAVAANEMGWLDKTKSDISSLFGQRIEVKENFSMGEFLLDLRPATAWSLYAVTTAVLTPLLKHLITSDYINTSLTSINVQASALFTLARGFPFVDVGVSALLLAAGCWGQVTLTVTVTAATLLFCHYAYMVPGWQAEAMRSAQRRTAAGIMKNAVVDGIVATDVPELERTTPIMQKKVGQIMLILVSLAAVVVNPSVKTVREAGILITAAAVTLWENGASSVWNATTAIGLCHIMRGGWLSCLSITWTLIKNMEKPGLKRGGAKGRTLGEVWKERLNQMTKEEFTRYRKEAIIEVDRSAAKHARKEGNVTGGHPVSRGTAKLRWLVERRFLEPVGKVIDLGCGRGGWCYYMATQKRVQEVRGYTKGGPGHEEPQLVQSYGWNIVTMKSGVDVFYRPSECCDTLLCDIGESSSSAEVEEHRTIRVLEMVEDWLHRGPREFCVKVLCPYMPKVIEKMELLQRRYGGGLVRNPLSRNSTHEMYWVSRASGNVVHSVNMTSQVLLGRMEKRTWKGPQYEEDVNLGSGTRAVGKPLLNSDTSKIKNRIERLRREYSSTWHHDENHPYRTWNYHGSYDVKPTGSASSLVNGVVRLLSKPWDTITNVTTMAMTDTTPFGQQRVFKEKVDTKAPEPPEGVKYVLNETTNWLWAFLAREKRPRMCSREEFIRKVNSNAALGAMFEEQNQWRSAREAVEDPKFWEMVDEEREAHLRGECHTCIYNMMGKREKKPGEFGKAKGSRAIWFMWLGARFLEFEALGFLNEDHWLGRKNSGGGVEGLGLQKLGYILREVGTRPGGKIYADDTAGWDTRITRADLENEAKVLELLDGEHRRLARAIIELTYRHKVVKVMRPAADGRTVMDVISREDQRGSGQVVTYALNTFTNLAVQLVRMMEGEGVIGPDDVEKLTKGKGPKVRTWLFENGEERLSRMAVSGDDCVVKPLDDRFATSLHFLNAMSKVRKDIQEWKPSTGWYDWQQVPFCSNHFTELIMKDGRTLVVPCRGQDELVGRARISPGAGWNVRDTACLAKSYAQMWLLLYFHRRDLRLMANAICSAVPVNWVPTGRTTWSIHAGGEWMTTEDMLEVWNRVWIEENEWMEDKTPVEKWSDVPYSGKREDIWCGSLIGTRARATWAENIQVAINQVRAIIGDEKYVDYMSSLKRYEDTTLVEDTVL
RORC: Nuclear receptor ROR-gamma (RORC, Homo sapiens, UniProt P51449)
UniProt P51449, sequence (whole entry, looked up): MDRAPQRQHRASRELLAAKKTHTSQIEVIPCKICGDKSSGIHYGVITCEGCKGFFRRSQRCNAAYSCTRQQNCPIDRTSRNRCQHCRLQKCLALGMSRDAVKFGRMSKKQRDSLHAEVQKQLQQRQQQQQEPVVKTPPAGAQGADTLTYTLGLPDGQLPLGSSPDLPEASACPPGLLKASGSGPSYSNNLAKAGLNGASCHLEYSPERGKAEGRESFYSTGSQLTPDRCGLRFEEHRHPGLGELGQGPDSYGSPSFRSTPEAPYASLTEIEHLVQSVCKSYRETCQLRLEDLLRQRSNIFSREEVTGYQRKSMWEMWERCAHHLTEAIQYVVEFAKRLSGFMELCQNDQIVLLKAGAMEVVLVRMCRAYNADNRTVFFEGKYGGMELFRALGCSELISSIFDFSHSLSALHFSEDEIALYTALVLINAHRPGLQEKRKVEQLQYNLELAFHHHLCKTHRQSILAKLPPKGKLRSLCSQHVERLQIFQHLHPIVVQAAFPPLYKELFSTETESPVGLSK
plsY: Glycerol-3-phosphate acyltransferase (plsY, Streptococcus pneumoniae, UniProt P0A4Q0)
UniProt P0A4Q0, sequence (whole entry, looked up): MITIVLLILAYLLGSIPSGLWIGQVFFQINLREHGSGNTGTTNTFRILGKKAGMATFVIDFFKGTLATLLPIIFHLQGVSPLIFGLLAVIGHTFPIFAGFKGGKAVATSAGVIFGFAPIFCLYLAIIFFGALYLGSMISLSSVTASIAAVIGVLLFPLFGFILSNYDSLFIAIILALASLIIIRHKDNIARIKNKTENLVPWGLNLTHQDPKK
UniProt O07884, sequence (whole entry, looked up): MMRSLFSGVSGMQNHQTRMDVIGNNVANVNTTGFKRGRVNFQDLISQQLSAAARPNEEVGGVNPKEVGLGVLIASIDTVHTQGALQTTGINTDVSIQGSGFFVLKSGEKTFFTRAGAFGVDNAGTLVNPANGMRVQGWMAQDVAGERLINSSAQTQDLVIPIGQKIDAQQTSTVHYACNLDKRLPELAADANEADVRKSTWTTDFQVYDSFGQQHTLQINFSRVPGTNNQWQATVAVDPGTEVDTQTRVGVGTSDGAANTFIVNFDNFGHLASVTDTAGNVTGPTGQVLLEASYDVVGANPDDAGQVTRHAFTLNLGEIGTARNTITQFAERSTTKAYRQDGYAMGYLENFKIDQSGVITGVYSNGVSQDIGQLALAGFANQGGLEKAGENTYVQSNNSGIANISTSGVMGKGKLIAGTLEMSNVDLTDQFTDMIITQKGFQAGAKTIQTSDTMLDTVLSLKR

`CC[C@@H](O)Cn1c(=O)n(C)c2ccc(Nc3ccnc(Cl)c3C#N)cc21` has an IC50 of 4.74 µM and 3.39 µM and 5.86 µM (BCL6).
With `CCOP(=O)(OCC)Oc1nc(Cl)c(Cl)cc1Cl` the IC50 was 0.0044 µM and 0.0035 µM and 0.005 µM (carboxylesterase mouse; inhibitor; PON1+/+ mouse liver homogenate; 30 min, 23 °C).
`Nc1ncnc2c1c(Oc1cc(C(=O)O)ccn1)nn2C1CC1` gave an IC50 of > 20 µM (CDPK1; enzyme activity, inhibitor).
The IC50 of `COCO[C@H]1C[C@H]2OC(C)(C)OC[C@]23[C@@H]2[C@@H](CC[C@]3(O)C1)[C@@]1(OCOC)CC[C@H](CO)[C@@]1(C)C[C@H]2OCOC` is reported as > 62.5 µM (Voltage-gated inwardly rectifying potassium channel KCNH2 (KCNH2, Homo sapiens, UniProt Q12809); inhibitor).
With `COc1cc(C(=O)N2CC[C@@H](O)[C@@H](N)C2)cc2nc(-c3cc4ccccc4n3CC3CC3)n(C)c12` the IC50 was > 39.8 µM (5-hydroxytryptamine receptor 2C (HTR2C, Homo sapiens, UniProt P28335); intracellular calcium, antagonist, luminescence).
`Cn1c(=O)n(CCC(C)(C)O)c2cc(Nc3nc(N4CCCCC4)ncc3Cl)ccc21` has an IC50 of 1.08 µM and 0.94 µM (BCL6).
With `CNC(C)Cc1ccc2nonc2c1` (centres unmarked) the IC50 was 20.2 ± 4.8 µM (Equilibrative nucleoside transporter 4 (SLC29A4, Homo sapiens, UniProt Q7RTT9)).
`CCCCCCCCCC(=O)NC1CCCC1` has an IC50 of 8.45 µM (qscR, ligand-binding domain (Pseudomonas aeruginosa, UniProt G3XD77); ligand binding, FRET displacement; ligand-binding domain 5 nM, added: fluorescent ligand 2 µM).
The IC50 of `Cn1c(=O)ccc2ccc(F)c(CCNC[C@H]3CN(c4ccc5c(n4)NC(=O)CO5)C(=O)O3)c21` is reported as 0.03 µM (DNA topoisomerase 4 subunit A, with ParE subunit (Escherichia coli K-12, UniProt P0AFI2); decatenation activity, inhibitor).
The IC50 of `COc1cc(Nc2ncc(F)c(Nc3ccc4c(n3)NC(=O)C(C)(C)O4)n2)cc(OC)c1OC` is reported as > 10 µM (Tyrosine-protein phosphatase non-receptor type 2 (PTPN2, Homo sapiens, UniProt P17706); TCPTP).
For `COc1ncccc1-c1cnn2ccc(N3CCN(C(=O)OC(C)C)CC3)nc12`, the IC50 was > 30 µM (Beta-1 adrenergic receptor (ADRB1, Homo sapiens, UniProt P08588); liability screen).
`CN(C)c1ncc(Cl)c(Nc2ccc3c(c2)n(CCC(C)(C)O)c(=O)n3C)n1` has an IC50 of 1.49 µM and 1.12 µM and 0.94 µM (BCL6).
`[Fe+2].[O-][Cl+3]([O-])([O-])[O-].[O-][Cl+3]([O-])([O-])[O-]` has an IC50 of > 1000 µM (Proteasome subunit beta type-6, caspase-like site (PSMB6, Homo sapiens, UniProt P28072); caspase-like activity, inhibitor, purified 20S proteasome; pH 7.4, added: 20 µM Z-LLE-AMC).
`Cn1c(=O)n(CCC(C)(C)O)c2cc(Nc3nc(N4CCC(C(F)(F)F)CC4)ncc3Cl)ccc21` has an IC50 of 1.19 µM and 0.77 µM (BCL6).
With `C=CC(=O)N[C@H]1C=C(C)c2c(-c3cnc4ccccc4c3)c3c(N)ncnc3n2C1` the IC50 was 0.597 µM (Epidermal growth factor receptor (EGFR, Homo sapiens, UniProt P00533); EGFR phosphorylation, HTRF; HaCaT^WT cells; 2 h, added: EGF).
For `Oc1cc(Cl)ccc1Oc1ccc(Cl)cc1Cl`, the IC50 was 64.7 µM (Flagellar hook protein FlgE (flgE, Treponema pallidum, UniProt O07884)).
`CO[C@H]1C[C@H](O[C@H]2[C@H](C)O[C@@H](O[C@@H]3/C(C)=C/C[C@@H]4C[C@@H](C[C@]5(C=C[C@H](C)[C@@H](C6CCCCC6)O5)O4)OC(=O)[C@@H]4C=C(C)[C@@H](O)[C@H]5OC/C(=C\C=C\[C@@H]3C)[C@]54O)C[C@@H]2OC)O[C@@H](C)[C@@H]1O` gave an IC50 of 2.18 ± 1.68 µM (NR1H3; receptor activity, inhibitor; cells).
For `COCCn1c2nc(=O)n(-c3ccccc3)c(=O)c-2nc2ccccc21`, the IC50 was 12.2 µM (GP1 NS5 methyltransferase domain; IC50-HTRF).
For `C[C@@H]1CN(Cc2ccc(F)cc2)CCN1C(=O)COc1ccc(Cl)cc1NC(N)=O`, the IC50 was 4.97 ± 2.19 µM (RORC; reporter gene, inhibitor, GAL4 dual-luciferase reporter; HEK293T; 24 h).
With `Cc1ccn(-c2ncc(Cl)c(Nc3ccc4c(c3)n(CCC(C)(C)O)c(=O)n4C)n2)n1` the IC50 was 0.37 µM and 0.43 µM and 0.34 µM (BCL6).
For `CC(=O)c1cc(O)c2ccccc2c1O`, the IC50 was 5.7 µM (GP1 NS5 methyltransferase domain; IC50-disp).
`O=c1[nH]c2ccccc2n1C1CCN(Cc2ccc(-c3nc4cc5[nH]cnc5cc4nc3-c3ccccc3)cc2)CC1` has an IC50 of 2.64 ± 1.86 µM (RORC; reporter gene, inhibitor, GAL4 dual-luciferase reporter; HEK293T; 24 h).
For `O=C1c2ccccc2C(=O)C1c1ccccc1`, the IC50 was 25 ± 7.08 µM (NR1H3; receptor activity, inhibitor; cells).
For `O=[N+]([O-])c1cc(-n2nccn2)ccc1NCCCCCCN[C@H]1C[C@](O)(CO)[C@@H](O)[C@H](O)[C@H]1O`, the IC50 was 0.05 µM (Mogs (Mus musculus, UniProt Q80UM7); enzyme activity, inhibitor; added: trisaccharide substrate).
For `CC(C)c1cc2c(c(O)c1O)[C@@]13CCCC(C)(C)[C@@H]1[C@H](OC3=O)[C@H]2O`, the IC50 was 0.00418 ± 8e-05 µM (Carbonic anhydrase 2 (CA2, Homo sapiens, UniProt P00918); enzyme activity, inhibitor).
`CCCCCCCCCCCCCCCC(=O)NP(=O)(O)O` has an IC50 of 82 µM (plsY; inhibitor).
`CCOC(=O)CC(SP(=O)(OC)OC)C(=O)OCC` (centres unmarked) gave an IC50 of 0.312 µM and 0.336 µM and 0.278 µM (carboxylesterase mouse; inhibitor; PON1+/+ mouse liver homogenate; 30 min, 23 °C).
For `CCCCCCCCCCCCCCCC(=O)NS(=O)(=O)Oc1ccc(OC)cc1`, the IC50 was 60 µM (plsY; inhibitor).
For `N#Cc1cc2nc(O)c(O)nc2cc1[N+](=O)[O-]`, the IC50 was 1.2 ± 0.3 µM (Glutamate receptor 3 (Rattus norvegicus, UniProt P19492, D677A)).
`C[C@@H]1CN(c2ncc(Cl)c(Nc3ccc4c(c3)n(CCC(C)(C)O)c(=O)n4C)n2)C[C@H](C)O1` gave an IC50 of 0.17 µM (BCL6).
`O=S(=O)(Nc1ccc(-c2n[nH]c(=S)o2)cc1)c1ccc(C(F)(F)F)cc1` has an IC50 of 0.89 ± 0.073 µM (P2X purinoceptor 7 (P2RX7, Homo sapiens, UniProt Q99572); calcium mobilization, antagonist; MCF7 transfected with P2RX7; added: 100 µM BzATP).
With `CCCC(=O)CC(=O)N[C@H]1CCOC1=O` the IC50 was 5.97 µM (qscR, DNA-bound dimer (Pseudomonas aeruginosa, UniProt G3XD77); ligand binding, FRET displacement; protein 5 nM with DNA, added: fluorescent ligand 2 µM).
The IC50 of `Cn1c(=O)n(CCC(C)(C)O)c2cc(Nc3nc(-n4cccn4)ncc3Cl)ccc21` is reported as 0.59 µM (BCL6).
`Nc1ncnc2c1c(Oc1ccc(C(F)(F)F)cn1)nn2C1CC1` gave an IC50 of > 20 µM (CDPK1; enzyme activity, inhibitor).
The IC50 of `CSc1ncc(Cl)c(Nc2ccc3c(c2)n(CCC(C)(C)O)c(=O)n3C)n1` is reported as 0.73 µM (BCL6).
For `C[C@H]1CN(c2n[nH]c3nc(N[C@H]4CC[C@H](NS(=O)(=O)CCC(F)(F)F)CC4)ncc23)CCO1`, the IC50 was ≥ 20 µM (Dynactin subunit 2 (DCTN2, Homo sapiens, UniProt Q13561); biochemical).
`O=C(O)CC(F)(F)C(=O)N1N=C(c2c(-c3ccc(Cl)cc3)c3ccccc3[nH]c2=O)C[C@H]1c1ccc(Cl)cc1` has an IC50 of 0.091 µM (Grin1/Grin2b/Glutamate receptor ionotropic, NMDA 2D (Rattus norvegicus, UniProt P35439+Q00960+Q62645); ion current, inhibitor, two-electrode voltage clamp; Xenopus oocytes; added: glycine and aspartate).
With `O=C1c2ccccc2C(=O)C1C(=O)C(c1ccccc1)c1ccc(Cl)cc1` (centres unmarked) the IC50 was 24.3 ± 12.5 µM (NR1H3; receptor activity, inhibitor; cells).

Repeated from above:
With `CCCC(=O)CC(=O)N[C@H]1CCOC1=O` the IC50 was 5.97 µM (qscR, DNA-bound dimer (Pseudomonas aeruginosa, UniProt G3XD77); ligand binding, FRET displacement; protein 5 nM with DNA, added: fluorescent ligand 2 µM).
`CCCCCCCCCCCCCCCC(=O)NP(=O)(O)O` has an IC50 of 82 µM (plsY; inhibitor).
For `CCCCCCCCCCCCCCCC(=O)NS(=O)(=O)Oc1ccc(OC)cc1`, the IC50 was 60 µM (plsY; inhibitor).
`Nc1ncnc2c1c(Oc1cc(C(=O)O)ccn1)nn2C1CC1` gave an IC50 of > 20 µM (CDPK1; enzyme activity, inhibitor).
